Measurements of several laboratories.
Protocols differ between the studies behind these lines. “And” joins repeats or separate records; there may be more than shown. ± gives the spread as reported. ≈ marks a conversion by molar mass, not a printed value.

| Structure (SMILES) | test | system | setting | scale | quantity | result |
| --- | --- | --- | --- | --- | --- | --- |
| COc1ccccc1-c1n[nH]c2nc(N[C@H]3CC[C@H](NS(=O)(=O)CC(C)C)CC3)ncc12 | bead binding, competition bead pull-down, item: LINJ.27.0100 | Leishmania donovani extract | 10 µM | reference: vehicle | relative abundance | 0.58 |
| Cc1ccc(C2=CC(C)(C)Oc3ccc(-c4ccc(-c5ccc(C(=O)O)cc5)[nH]4)cc32)cc1 | – | CD1 mouse, male, testis | 10 mg/kg/day, 4 weeks after treatment, dosed for 4 weeks | – | tubules with recovered spermatogenesis | 92.5% and 85.8% and 79.6% and 82.3% and 97.9% |
| NC(=NN=Cc1cccs1)[S][Ru+]([Cl])([P](c1ccccc1)(c1ccccc1)c1ccccc1)[P](c1ccccc1)(c1ccccc1)c1ccccc1.[Cl-] | nitric oxide radical scavenging, cell-free | – | – | – | IC50 | 27 µM |
| CC[C@H](C)[C@H](NC(=O)[C@@H](NC(=O)c1cccc(Cl)c1Cl)C(C)(C)C)C(=O)N[C@H](C(=O)N[C@H](C(=O)N[C@H](C(=O)N[C@@H](CCC(N)=O)C(=O)N[C@@H](Cc1c[nH]cn1)C(=O)N[C@H](CC(C)C)C(=O)N[C@@H](CO)C(=O)NCCC(=O)N[C@@H](CCCCNC(=O)CC[C@@H]1NC(=O)[C@@H](CCCNC(=N)N)NC(=O)[C@H](CCCNC(=N)N)NC(=O)[C@@H](CCCNC(=N)N)NC(=O)[C@H](CCCNC(=N)N)NC(=O)[C@H](Cc2ccc3ccccc3c2)NC(=O)[C@@H](Cc2ccccc2)NC1=O)C(N)=O)[C@@H](C)O)[C@@H](C)CC)C(C)(C)C | – | mouse, acute lung injury, LPS-induced | intranasal, 10 mg/kg, together with: LPS 10 mg/kg i.p. | reference: control peptide | BALF neutrophil count | decreased |
| CC[C@H](C)[C@H](NC(=O)[C@H](CCCNC(=N)N)NC(=O)[C@H](CO)NC(=O)[C@H](Cc1ccc(O)cc1)NC(=O)[C@@H](NC(=O)[C@@H](NC(=O)[C@H](C)NC(=O)CNC(=O)[C@H](CCCCN)NC(=O)[C@H](CCCCN)NC(=O)CCNC(=O)CCCCCNC(=O)[C@H](CCCNC(=N)N)NC(=O)CCCCCNC(=O)[C@H](CCCNC(=N)N)NC(=O)[C@H](CCCNC(=N)N)NC(=O)CCCCCNC(=O)[C@H](CCCNC(=N)N)NC(=O)[C@H](CCCNC(=N)N)NC(=O)CCCCCNC(=O)[C@H](CCCNC(=N)N)NC(=O)[C@H](CCCNC(=N)N)NC(=O)CCCCCNC(=O)[C@@H](N)CCCNC(=N)N)C(C)C)[C@@H](C)O)C(=O)N[C@@H](CO)C(=O)NCC(=O)N[C@@H](CCC(N)=O)C(=O)N[C@@H](Cc1ccc(O)cc1)C(=O)N[C@@H](CCCCN)C(=O)O | broth microdilution | ATCC 27853 resistant strain, Mueller-Hinton broth | – | – | MIC | 48 µM (≈ 171 µg/mL) |
| CC(C)C[C@@H]1NC(=O)[C@@H](Cc2c[nH]c3ccccc23)NC(=O)[C@H](CCCNC(=N)N)NC(=O)[C@@H](CCC(=O)O)NC(=O)[C@H](CCC(N)=O)NC(=O)[C@@H](CCC(=O)O)NC(=O)[C@H](CCCNC(=N)N)NC(=O)[C@@H](Cc2c[nH]c3ccccc23)NC1=O | Luminex, item: IFNg | LDLr-/- mice, Western diet, liver | dose not given, 4 weeks | – | cytokine level | 37 ± 16 pg/g tissue |
| Cc1cc(Br)c(NC2=NCCN2)c2ccccc12 | MAC formation, inhibitor, item: MAC deposition | human whole blood 50% | together with: zymosan | – | IC50 | 35 ± 12 µM |
| COc1ccc(CC2[NH2+]CCc3cc(OC)c(OC)cc32)cc1OC.[Cl][Fe-]([Cl])([Cl])[Cl] (stereo not drawn) | – | – | 1.0 mg/mL, 30 min, 25 °C | – | DPPH scavenging | 33.9% |
| Cc1cc(O)cc(C)c1C[C@H](N)C(=O)N[C@H](CCCNC(=N)N)C(=O)N[C@@H](Cc1ccccc1)C(=O)N[C@@H](CCCCN)C(=O)NCCCCCCCCNC(=O)[C@H](Cc1ccccc1)NC(=O)[C@H](CC1CCCCC1)NC[C@@H]1Cc2ccccc2CN1C(=O)[C@@H](N)Cc1ccc(O)cc1 | agonist | guinea pig ileum | – | – | IC50 | 0.318 ± 0.049 µM |
| CCN(Cc1ccccc1)C(=O)CCc1nc(CN2CCN(C(=O)Cc3ccc(OC)c(OC)c3)CC2)no1 | current clamp | DRG neurons, naive rat | 10 µM, together with: 500 pA current injection | – | action potential number | 0.67 ± 0.09 |
| Cc1sc2c(c1C)C(c1ccc(-c3cccc(NC(=O)c4cnn5cccnc45)c3)cc1)=N[C@@H](CC(N)=O)c1nnc(C)n1-2 | – | mouse, MV4-11 subcutaneous xenograft | 10 mg/kg daily, 14 days | – | tumour growth inhibition | 119% |
| COC(=O)C1CN1S(=O)(=O)c1ccc(C)cc1 (stereo not drawn) | – | mouse Lewis lung carcinoma | intraperitoneal, 100 mg/kg, day 15 | – | tumour growth inhibition | 49% |
| COc1ccccc1-c1n[nH]c2nc(NC3CCN(C(=O)Cc4ccc(F)cc4F)CC3)ncc12 | bead binding, competition bead pull-down, item: LINJ.36.4870 | Leishmania donovani axenic amastigote extract | 10 µM | reference: vehicle | relative abundance | 0.91 |
| O=C(O)c1ccc(-c2nc(-c3ccccc3Cl)c3sccn23)cc1 | – | C57BL/6 mice, 5-fluorouracil treated | oral, 100 mg/kg daily, day 11 | – | platelet recovery | 379% and 392% and 208% and 326% |
| CCCCCC1=C(NCC)C(=O)C(C/C=C(\C)CCC=C(C)C)=C(O)C1=O | RNA-seq, item: Stat2 regulon | mouse, striatum | dose not given | direction not given | normalised enrichment score | 2.21 |
| CCCC[C@@H]1NC(=O)[C@H](Cc2ccc(O)cc2)NC(=O)[C@@H]2CCCN2C(=O)[C@H](CC(=O)O)NC(=O)[C@H](C)NC(=O)[C@H](Cc2ccccc2)NC(=O)[C@@H]2CSCCC(=O)N3CN(CN(C3)C(=O)CCSC[C@@H](C(=O)N[C@@H](C)C(N)=O)NC1=O)C(=O)CCSC[C@H](NC(C)=O)C(=O)N[C@@H](CC(C)(C)C)C(=O)N1CCC[C@H]1C(=O)N[C@@H](CCC(=O)O)C(=O)N[C@H](CCCCNC(=O)CCc1cn(CCOCCOCCOCCN(CCOCCOCCOCCC(=O)N[C@H]3CSCCC(=O)N4CN5CN(C4)C(=O)CCSC[C@H](NC(=O)[C@@H](CC(=O)O)NC(=O)[C@H](Cc4cccc6ccccc46)NC(=O)[C@@H]4CCCN4C3=O)C(=O)N[C@@H](CCSC)C(=O)N[C@@H](CCCCNC(=N)N)C(=O)N[C@@H](CC(=O)O)C(=O)N[C@@H](Cc3c[nH]c4ccccc34)C(=O)N[C@@H](CO)C(=O)N[C@@H]([C@@H](C)O)C(=O)N3CCC[C@H]3C(=O)N3C[C@H](O)C[C@H]3C(=O)N[C@@H](Cc3c[nH]c4ccccc34)C(=O)N[C@H](C(N)=O)CSCCC5=O)CCOCCOCCOCCn3cc(CCC(=O)NCCCC[C@H]4NC(=O)[C@H](CCC(=O)O)NC(=O)[C@@H]5CCCN5C(=O)[C@H](CC(C)(C)C)NC(=O)[C@@H](NC(C)=O)CSCCC(=O)N5CN6CN(C5)C(=O)CCSC[C@H](NC(=O)[C@H](Cc5ccc(O)cc5)NC(=O)[C@@H]5CCCN5C4=O)C(=O)N[C@@H](Cc4ccccc4)C(=O)N[C@@H](C)C(=O)N[C@@H](CC(=O)O)C(=O)N4CCC[C@H]4C(=O)N[C@@H](Cc4ccc(O)cc4)C(=O)N[C@@H](CCCC)C(=O)N[C@H](C(=O)N[C@@H](C)C(N)=O)CSCCC6=O)nn3)nn1)C(=O)N1CCC[C@H]1C(=O)N[C@@H](Cc1ccc(O)cc1)C(=O)N2 | NanoString, item: Xbp1-mRNA | mouse bearing MC38-Nectin-4 tumour, circulating white blood cells | 5 mg/kg, 24 h after dosing, unit not given | reference: vehicle | mRNA level | 1.58 |
| CC[C@H](C)[C@H](NC(=O)[C@H](CC(C)C)NC(=O)[C@H](CC(=O)O)NC(=O)[C@H](CCCNC(=N)N)NC(=O)[C@H](Cc1c[nH]c2ccccc12)NC(=O)[C@@H](N)CC(C)C)C(=O)N[C@@H](CS)C(=O)N[C@@H](CC(C)C)C(=O)N[C@@H](CS)C(=O)N[C@@H](CCCNC(=N)N)C(=O)N[C@@H](CC(N)=O)C(=O)N[C@@H](CCCNC(=N)N)C(=O)N[C@@H](CCCNC(=N)N)C(=O)N[C@@H](CS)C(=O)N[C@@H](CC(N)=O)C(=O)N[C@@H](CCCNC(=N)N)C(=O)NCC(=O)N[C@@H](CCC(N)=O)C(=O)N[C@@H](CC(C)C)C(=O)N[C@@H](Cc1ccccc1)C(=O)N1CCC[C@H]1C(=O)NCC(=O)N[C@@H](Cc1c[nH]c2ccccc12)C(=O)N[C@@H](CS)C(=O)N1CCC[C@H]1C(=O)NCC(=O)N[C@@H](Cc1c[nH]c2ccccc12)C(=O)N[C@@H](Cc1c[nH]c2ccccc12)C(=O)N[C@@H](CC(C)C)C(=O)N[C@@H](CCCNC(=N)N)C(=O)N[C@@H](CS)C(=O)N[C@@H](CS)C(=O)N[C@@H](CCCNC(=N)N)C(=O)N[C@@H](CCCNC(=N)N)C(N)=O | – | female C57BL/6J mice, DSS colitis | 5 mg/kg, 7 days | – | colon length | 7.12 ± 0.82 cm |
| CCc1nnc(-c2c(OC)cc(-c3cnc4cc(-c5cnn(C)c5)ccn34)cc2OC)o1 | histomorphometry | male C57BL/6J mouse, tibia | oral gavage, 40 mg/kg once daily, 3 wk | – | osteoblast surface/bone surface | 8.07 ± 0.41% |

A few entries again:
| Structure (SMILES) | test | system | setting | scale | quantity | result |
| --- | --- | --- | --- | --- | --- | --- |
| CC[C@H](C)[C@H](NC(=O)[C@H](CC(C)C)NC(=O)[C@H](CC(=O)O)NC(=O)[C@H](CCCNC(=N)N)NC(=O)[C@H](Cc1c[nH]c2ccccc12)NC(=O)[C@@H](N)CC(C)C)C(=O)N[C@@H](CS)C(=O)N[C@@H](CC(C)C)C(=O)N[C@@H](CS)C(=O)N[C@@H](CCCNC(=N)N)C(=O)N[C@@H](CC(N)=O)C(=O)N[C@@H](CCCNC(=N)N)C(=O)N[C@@H](CCCNC(=N)N)C(=O)N[C@@H](CS)C(=O)N[C@@H](CC(N)=O)C(=O)N[C@@H](CCCNC(=N)N)C(=O)NCC(=O)N[C@@H](CCC(N)=O)C(=O)N[C@@H](CC(C)C)C(=O)N[C@@H](Cc1ccccc1)C(=O)N1CCC[C@H]1C(=O)NCC(=O)N[C@@H](Cc1c[nH]c2ccccc12)C(=O)N[C@@H](CS)C(=O)N1CCC[C@H]1C(=O)NCC(=O)N[C@@H](Cc1c[nH]c2ccccc12)C(=O)N[C@@H](Cc1c[nH]c2ccccc12)C(=O)N[C@@H](CC(C)C)C(=O)N[C@@H](CCCNC(=N)N)C(=O)N[C@@H](CS)C(=O)N[C@@H](CS)C(=O)N[C@@H](CCCNC(=N)N)C(=O)N[C@@H](CCCNC(=N)N)C(N)=O | – | female C57BL/6J mice, DSS colitis | 5 mg/kg, 7 days | – | colon length | 7.12 ± 0.82 cm |
| CC[C@H](C)[C@H](NC(=O)[C@@H](NC(=O)c1cccc(Cl)c1Cl)C(C)(C)C)C(=O)N[C@H](C(=O)N[C@H](C(=O)N[C@H](C(=O)N[C@@H](CCC(N)=O)C(=O)N[C@@H](Cc1c[nH]cn1)C(=O)N[C@H](CC(C)C)C(=O)N[C@@H](CO)C(=O)NCCC(=O)N[C@@H](CCCCNC(=O)CC[C@@H]1NC(=O)[C@@H](CCCNC(=N)N)NC(=O)[C@H](CCCNC(=N)N)NC(=O)[C@@H](CCCNC(=N)N)NC(=O)[C@H](CCCNC(=N)N)NC(=O)[C@H](Cc2ccc3ccccc3c2)NC(=O)[C@@H](Cc2ccccc2)NC1=O)C(N)=O)[C@@H](C)O)[C@@H](C)CC)C(C)(C)C | – | mouse, acute lung injury, LPS-induced | intranasal, 10 mg/kg, together with: LPS 10 mg/kg i.p. | reference: control peptide | BALF neutrophil count | decreased |
